Published values collected from several papers.
Every numbered part comes from another study and shows a few of its results, in no order.

Block 1 — technique: competition protein-binding microarray; molecule type: double-stranded DNA, one strand shown; sample: in vitro; tested at: 2 µM; added: Pho4 competitor, 0.05 µM; direction: higher = stronger binding
Target: Centromere-binding protein 1, full length, His-tagged (CBF1, Saccharomyces cerevisiae, UniProt P17106, residues 1-351)
UniProt P17106, sequence (whole entry, looked up): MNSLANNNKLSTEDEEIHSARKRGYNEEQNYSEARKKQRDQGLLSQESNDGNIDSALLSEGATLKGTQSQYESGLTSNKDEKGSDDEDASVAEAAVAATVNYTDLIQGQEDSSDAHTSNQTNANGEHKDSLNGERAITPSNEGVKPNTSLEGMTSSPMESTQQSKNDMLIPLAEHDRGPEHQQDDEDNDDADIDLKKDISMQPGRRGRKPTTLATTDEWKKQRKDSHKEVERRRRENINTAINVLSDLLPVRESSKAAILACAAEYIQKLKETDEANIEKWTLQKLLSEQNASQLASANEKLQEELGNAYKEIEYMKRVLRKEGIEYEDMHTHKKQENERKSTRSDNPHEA
Notes: whole 60-bp probe, lowest competitor level
Sequence | fluorescence intensity [a.u.]
ACAGCCGCGGTTGGGTGCGTGGGTACGGTAATTTAAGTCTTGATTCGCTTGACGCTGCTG | 54.1
CTTCTGTAAATTTGGCGCGTGGGTGGACGCGCCCCGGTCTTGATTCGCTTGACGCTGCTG | 75.1
AGAAAGGTAGTGTCCCACGTCAGTAGAACCATGCGCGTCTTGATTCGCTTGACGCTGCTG | 54.9
TCAATATAATTCTGTCATGCTTGGCCTTACTGCTTAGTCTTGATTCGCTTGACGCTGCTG | 95.7
ACCCAGGGGCGCCCCCACGTGGGGTCTGGGAGCGCGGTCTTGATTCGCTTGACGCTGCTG | 369

Block 2 — technique: protein-binding microarray; molecule type: double-stranded DNA, one strand shown; sample: in vitro; tested at: 250 nM; notes: 60-bp whole probe; added: salmon DNA 0.4 mg/ml; reference: random background probes; direction: higher = stronger binding
Target: Interferon regulatory factor 5, full length, phosphomimetic (IRF5, Homo sapiens, UniProt Q13568-2, residues 1-514, K96S/S451D/S453D/S456D/S462D)
Sequence | log fluorescence [z-score]
GCCTAGCACCTAGGTATCCTTATCCTTTAGTGCTAGGTCTTGATTCGCTTGACGCTGCTG | -0.078
GCCTAGCACGACGGACTGGGGACTGGGGTCGTGCTAGTCTTGATTCGCTTGACGCTGCTG | -0.396
GCCTAGCACGACGGTATCGGTCTCGGGCCGTGCTAGGTCTTGATTCGCTTGACGCTGCTG | 5.3
GCCTAGCACTCACGTTTACATTTTCCACTGTGCTAGGTCTTGATTCGCTTGACGCTGCTG | 0.862

Block 3 — technique: RNA Bind-n-Seq; molecule type: RNA; sample: in vitro; tested at: 365 nM; reference: no-protein control; direction: higher = stronger binding
Target: RNA binding protein fox-1 homolog 2, RRM domain, GST-SBP tag (RBFOX2, Homo sapiens, UniProt O43251-10, residues 100-194)
Notes: natural RNA segment, single round, ends assumed
Residues (chain): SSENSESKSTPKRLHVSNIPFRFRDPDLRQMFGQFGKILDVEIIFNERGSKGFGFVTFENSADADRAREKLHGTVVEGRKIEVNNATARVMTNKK
Sequence | RBNS enrichment (R)
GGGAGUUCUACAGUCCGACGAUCAGUCGUUUCUAUGUAGCUUGGCAGAGCCCACUGAUGGCUGCAGGUGUGUAGCCUACUGACAGCUUUGGUUAACCCACUGCACAUCACCCAGUCAUUUACCCAACUUACUCUGGAAUUCUCGGGUGCCAA | 0.334
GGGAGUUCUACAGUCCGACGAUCAGUGACUGUGGUCUCAGUGCUGGGAGCCCAGGAGGAACCGUCAUGCCUUACCUCCUUCUAAUGGGUAAAGGGGCUUUCUUAUCAAGCAUGUCUGACAUCCCUGGAGAGGCUGGAAUUCUCGGGUGCCAA | 2.53
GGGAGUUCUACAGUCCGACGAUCUGUACACUCCCUGGAAUGUAAUUGUUAACAUUCUUACAUUUGGGCCUCUUCACACACCGUCUGCCUGCCUGCUUCCUUCUGAGAAUAUUUUCCCAGUAUCUCCAGGCCUUUGGAAUUCUCGGGUGCCAA | 0.446
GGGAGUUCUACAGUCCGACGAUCUAGCAGAGUUCAUGAAACCACAGCUCUUCCAAGCCAUGUACAUAGUUCAUGCUCAGCCCUGAACUCUAAUCUAGCCUGCAACCAGCCCUUCUCUCCUCUUAUCAUCUAACUGGAAUUCUCGGGUGCCAA | 0.388
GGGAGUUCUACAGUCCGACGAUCUCUACCCUGUCCUUUGCAAUUGCUCUUCUCCACGUCUUUCCUGCUACAAGUGUUUUAGAUGUUACUACCUUAUUUUCCCCGAAUUCUAUUUUUGUCCUUGCAGACAGAAUUGGAAUUCUCGGGUGCCAA | 1.31

Other studies, line by line
Molecule | target | assay | system | setting | how to read | endpoint | value
PhoQ, residues 284 288 289 292 302 303 SCEHLI | PhoP, residues 12 14 15 18 19 AWHSL (Escherichia coli, UniProt P23836) | Sort-seq, measured: YFP reporter | E. coli | PhoQ-PhoP variant library, added: 10 µM Mg2+ | reference: high Mg2+ state, higher = stronger signaling | fold induction | 4.63

Repeated from above (block 3):
Sequence | RBNS enrichment (R)
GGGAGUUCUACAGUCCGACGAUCUGUACACUCCCUGGAAUGUAAUUGUUAACAUUCUUACAUUUGGGCCUCUUCACACACCGUCUGCCUGCCUGCUUCCUUCUGAGAAUAUUUUCCCAGUAUCUCCAGGCCUUUGGAAUUCUCGGGUGCCAA | 0.446
